Results gathered from unrelated publications.
Every numbered part comes from another study and shows a few of its results, in no order.

Set 1
Target: Histone acetyltransferase KAT6A, both winged helices, GST fusion (KAT6A, Homo sapiens, UniProt Q92794, residues 1-181)
Technique: protein binding microarray
Molecule type: double-stranded DNA, one strand shown
Matrix: in vitro
Concentration: not given
Setting: 8-mer, flanks averaged, mean of 2 arrays, mostly near background
Baseline: not given
Reading: higher = stronger binding
Construct (chain): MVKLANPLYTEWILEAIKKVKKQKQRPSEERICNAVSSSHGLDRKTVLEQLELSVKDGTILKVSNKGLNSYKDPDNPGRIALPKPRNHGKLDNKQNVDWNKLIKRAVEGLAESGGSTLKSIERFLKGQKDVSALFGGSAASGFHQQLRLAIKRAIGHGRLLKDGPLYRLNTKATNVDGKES
| Strand | E-score |
| --- | --- |
| ACCCAACG | -0.116 |
| ACAATGAA | -0.141 |
| ATTAAGTG | -0.0862 |

Set 2
Target: Interferon regulatory factor 7, full length, phosphomimetic (IRF7, Homo sapiens, UniProt Q92985, residues 1-503, S101K/S471D/S472D/S475D/S476D/S477D/S483D/S484D/S487D)
Technique: protein-binding microarray
Molecule type: double-stranded DNA, one strand shown
Matrix: in vitro
Concentration: 250 nM
Setting: 60-bp whole probe
Together with: salmon DNA 0.4 mg/ml
Baseline: random background probes
Reading: higher = stronger binding
Construct (chain): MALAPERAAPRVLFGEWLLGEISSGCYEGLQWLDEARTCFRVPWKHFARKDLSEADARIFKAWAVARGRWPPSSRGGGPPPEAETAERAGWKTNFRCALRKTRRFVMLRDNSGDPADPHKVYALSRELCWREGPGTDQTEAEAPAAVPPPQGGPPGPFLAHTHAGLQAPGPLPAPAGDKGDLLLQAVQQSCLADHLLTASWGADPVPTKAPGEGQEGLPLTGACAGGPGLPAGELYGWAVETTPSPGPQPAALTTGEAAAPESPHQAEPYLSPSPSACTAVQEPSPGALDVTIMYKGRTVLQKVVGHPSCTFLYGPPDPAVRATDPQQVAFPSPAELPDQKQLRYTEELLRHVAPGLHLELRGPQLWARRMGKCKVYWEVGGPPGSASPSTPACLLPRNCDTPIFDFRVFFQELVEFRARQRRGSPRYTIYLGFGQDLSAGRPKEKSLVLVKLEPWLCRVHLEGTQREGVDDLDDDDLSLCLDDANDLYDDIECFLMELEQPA
| Strand | log fluorescence |
| --- | --- |
| GCCTAGCACTCAGGTATTTTTTTGTAACTGTGCTAGGTCTTGATTCGCTTGACGCTGCTG | 0.15 z-score |
| GCCTAGCACTGTTCTTTTCTGTTGTCTGTGTGCTAGGTCTTGATTCGCTTGACGCTGCTG | 2.17 z-score |
| GCCTAGCACGACGGACTGGACACTGTGGACGTGCTAGTCTTGATTCGCTTGACGCTGCTG | -0.643 z-score |
| GCCTAGCACGACGATCTCTGTATCGAGACGTGCTAGGTCTTGATTCGCTTGACGCTGCTG | 0.18 z-score |

Set 3
Target: Sal-like protein 4, full length isoform A (SALL4, Homo sapiens, UniProt Q9UJQ4, residues 1-1053)
Sequence of UniProt Q9UJQ4 (whole entry, looked up): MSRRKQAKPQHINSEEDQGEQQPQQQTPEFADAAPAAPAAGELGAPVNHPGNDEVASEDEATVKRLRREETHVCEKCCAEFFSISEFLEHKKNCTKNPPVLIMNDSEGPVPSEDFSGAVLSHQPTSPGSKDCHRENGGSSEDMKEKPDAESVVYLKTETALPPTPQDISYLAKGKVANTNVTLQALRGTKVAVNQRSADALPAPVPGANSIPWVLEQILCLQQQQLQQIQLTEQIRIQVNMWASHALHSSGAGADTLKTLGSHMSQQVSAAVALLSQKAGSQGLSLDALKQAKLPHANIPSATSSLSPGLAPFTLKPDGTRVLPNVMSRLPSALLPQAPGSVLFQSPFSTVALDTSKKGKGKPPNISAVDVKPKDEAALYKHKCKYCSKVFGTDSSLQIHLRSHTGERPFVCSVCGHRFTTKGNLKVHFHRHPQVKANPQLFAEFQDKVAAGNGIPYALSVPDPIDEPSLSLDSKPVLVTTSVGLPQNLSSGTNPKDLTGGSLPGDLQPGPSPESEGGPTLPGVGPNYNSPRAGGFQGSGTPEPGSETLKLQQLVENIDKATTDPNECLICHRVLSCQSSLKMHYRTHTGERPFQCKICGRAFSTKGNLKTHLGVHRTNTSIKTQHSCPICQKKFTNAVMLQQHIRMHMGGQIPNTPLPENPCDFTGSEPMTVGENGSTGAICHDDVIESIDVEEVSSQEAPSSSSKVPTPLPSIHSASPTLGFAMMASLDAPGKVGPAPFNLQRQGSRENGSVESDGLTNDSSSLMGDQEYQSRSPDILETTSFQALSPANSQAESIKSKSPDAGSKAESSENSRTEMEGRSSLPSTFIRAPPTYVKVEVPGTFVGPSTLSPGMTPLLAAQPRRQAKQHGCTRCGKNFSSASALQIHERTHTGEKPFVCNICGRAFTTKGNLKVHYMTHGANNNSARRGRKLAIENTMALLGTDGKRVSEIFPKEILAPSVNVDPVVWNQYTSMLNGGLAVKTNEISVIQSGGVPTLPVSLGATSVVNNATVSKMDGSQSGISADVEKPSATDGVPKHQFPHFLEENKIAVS
Technique: universal PBM
Molecule type: double-stranded DNA, one strand shown
Matrix: in vitro
Concentration: 600 nM
Setting: 8-mer, flanks averaged, mean of replicates
Reading: higher = stronger binding
| Strand | E-score |
| --- | --- |
| CGACCTGC | -0.167 |
| TCATCGCA | 0.134 |
| GCATGCGA | 0.0847 |
| TGTGTCAA | 0.234 |

Further values, each from its own experiment
| Substance | target | assay | test system | setting | how to read | quantity | value |
| --- | --- | --- | --- | --- | --- | --- | --- |
| PhoQ, residues 284 288 289 292 302 303 SVTLVV | PhoP, residues 12 14 15 18 19 GQAIL (Escherichia coli, UniProt P23836) | Sort-seq, item: YFP reporter | E. coli | PhoQ-PhoP variant library, together with: 10 µM Mg2+ | baseline: high Mg2+ state, higher = stronger signaling | fold induction | 11.4 |
